Measured values pooled from the literature.
Several values in a cell are separate wells, animals, samples, runs or records. Numbers after ± are the reported error.
Kir3.1/Kir3.2: Kir3.1/Kir3.2 (Homo sapiens, UniProt P48051+P48549)
TMEM97: Sigma intracellular receptor 2 (TMEM97, Homo sapiens, UniProt Q5BJF2)
NADH dehydrogenase [ubiquinone] iron-sulfur protein 7, mitochondrial/NADH dehydrogenase [ubiquinone] iron-sulfur protein 2, mitochondrial/MT-ND1: NADH dehydrogenase [ubiquinone] iron-sulfur protein 7, mitochondrial/NADH dehydrogenase [ubiquinone] iron-sulfur protein 2, mitochondrial/MT-ND1 (Homo sapiens, UniProt O75251+O75306+P03886)
FFAR4: Free fatty acid receptor 4 (FFAR4, Homo sapiens, UniProt Q5NUL3)
TRPM8: Transient receptor potential cation channel subfamily M member 8 (TRPM8, Homo sapiens, UniProt Q7Z2W7)
GAP50: Glideosome-associated protein 50 (GAP50, Plasmodium falciparum, UniProt Q8I2X3)
PDE1C isoform PDE1C2: Dual specificity calcium/calmodulin-dependent 3',5'-cyclic nucleotide phosphodiesterase 1C, isoform PDE1C2 (PDE1C, Homo sapiens, UniProt Q14123)
Maoa: Amine oxidase [flavin-containing] A (Maoa, Rattus norvegicus, UniProt P21396)
TOP2A: DNA topoisomerase 2-alpha (TOP2A, Homo sapiens, UniProt P11388)
GUK1: GUK1 (Homo sapiens, UniProt Q16774)

Compound	target	test	test system	conditions	scale	quantity	value
NC(Cc1cc(I)c(Oc2cc(I)c(O)c(I)c2)c(I)c1)C(=O)O (stereo not shown)	Thyroxine 5-deiodinase (DIO3, Homo sapiens, UniProt P55073, Y257A)	substrate		concentration not given, 10 min	baseline: average DMSO control	deiodinase activity	92.4%
C[C@@H](O)[C@@H](CO)NC(=O)[C@@H](CCCNC(=N)N)NC(=O)[C@@H]1CCCN1C(=O)[C@@H]1CSSC[C@H](NC(=O)[C@H](Cc2ccccc2)NC(=O)CN2CCN(CC(=O)O)CCN(CC(=O)O)CCN(CC(=O)O)CC2)C(=O)N[C@@H](Cc2ccc(O)cc2)C(=O)N[C@@H](Cc2ccccc2)C(=O)N[C@@H](CCC(N)=O)C(=O)N[C@@H](CC(N)=O)C(=O)N1 [gallium-68 labelled]	AVPR1B (Homo sapiens, UniProt P47901)	receptor binding, radioimmunoassay		concentration not given, with: vasopressin V1b 62.5 nM		binding	23% and 26.4% and 27.7%
COc1cccc(-n2nc3c4cc(Cl)ccc4[nH]cc-3c2=O)c1	Gamma-aminobutyric acid receptor subunit alpha-4/beta-3, with delta subunit (Rattus norvegicus, UniProt P28471+P63079)	modulator, two-electrode voltage clamp	α4β3δ receptor	30 µM, with: GABA EC3-10	baseline: GABA alone	GABA current	130 ± 4%
CCc1cc(NC(=O)COc2ccc(Cl)cc2Cl)n(C2CCOCC2)n1	Kir3.1/Kir3.2	thallium flux, activator	HEK293		baseline: standard compound	Emax	92%
Nc1nc2ccccc2[nH]1	HVCN1 (Homo sapiens, UniProt Q96D96, F150A)	proton current, inhibitor, inside-out patch clamp				Hill coefficient	1.08 ± 0.04
CCCn1nc(C(=O)N2CCCCC2)c2c1CCC(N1CCC(c3ccncc3)CC1)C2 (stereo not shown)	TMEM97	[3H]DTG displacement			baseline: sigma 1, sigma 2 over	selectivity ratio	> 625 fold
NC(=O)NOCCCCCCCCCCCC[P+](c1ccccc1)(c1ccccc1)c1ccccc1.O=C([O-])C(F)(F)F	NADH dehydrogenase [ubiquinone] iron-sulfur protein 7, mitochondrial/NADH dehydrogenase [ubiquinone] iron-sulfur protein 2, mitochondrial/MT-ND1	complex I-dependent respiration, Seahorse XF96	HCT-116	10 µM, 24 h	baseline: control	oxygen consumption rate	11 ± 1.09%
Nc1nc2c(ncn2[C@@H]2O[C@@H]3COP(=O)(O)O[C@H]4[C@@H](O)[C@H](n5cnc6c(=O)[nH]c(N)nc65)O[C@@H]4COP(=O)(O)O[C@H]3[C@H]2O)c(=O)[nH]1	Cell cycle histidine kinase CckA, DHp-CA domains (Caulobacter vibrioides, UniProt Q9X688)	isothermal titration calorimetry	Caulobacter crescentus	concentration not given, 12 °C, with: ADP 5 mM		binding enthalpy (ΔH)	0.9 kcal/mol
CCCCCCNc1cc(=O)[nH]c(=O)[nH]1	FFAR4	antagonist, β-arrestin recruitment	CHO cells	10 µM		inhibition	11 ± 2%
CC[C@@H]1[C@H](F)C(=O)N[C@@H]1COc1nccc2cc(C(N)=O)c(OC)cc12	MAP3K11 (Homo sapiens, UniProt Q16584)	ATP-site probe binding, ActivX profiling, measured: MLK3	THP-1 cell lysate	0.2 mM, Lys1 site		inhibition	5%
CN(C)CCCn1cc(C2=C(c3c[nH]c4ccccc34)C(=O)NC2=O)c2ccccc21	TRPM8	antagonist	HEK293	5 µM	baseline: control	remaining activity	101 ± 6.26%
c1coc(-c2n[nH]cc2-c2ccnc3ccccc23)c1	Serine/threonine-protein kinase PKH2 (Candida albicans, UniProt Q5A3P6)	kinase binding, MIB/MS competition	Candida albicans lysate	1 µM	baseline: DMSO, negative = stronger binding	log2 fold change	-0.18
C[S+]([O-])c1ccc(-c2nc(-c3ccc(F)cc3)c(-c3ccncc3)[nH]2)cc1 (stereo not shown)	TRPM8	antagonist	HEK293	5 µM	baseline: control	remaining activity	107 ± 6.3%
Cc1ccc(C(=O)Nc2ccc(S(=O)(=O)O)c3cc(S(=O)(=O)O)cc(S(=O)(=O)O)c23)cc1NC(=O)c1cccc(NC(=O)Nc2cccc(C(=O)Nc3cc(C(=O)Nc4ccc(S(=O)(=O)O)c5cc(S(=O)(=O)O)cc(S(=O)(=O)O)c45)ccc3C)c2)c1	GAP50	binding, surface plasmon resonance		1:1 binding model		kon	1010 M⁻¹ s⁻¹
COc1cc(C(=O)NS(=O)(=O)c2ccccc2C)ccc1Cc1cn(C)c2ccc(NC(=O)OC3CCCC3)cc12	LRRC8A/LRRC8C (Homo sapiens, UniProt Q8IWT6+Q8TDW0)	whole-cell patch clamp	HCT116 LRRC8-/- expressing LRRC8A/C	30 µM, +100 mV		inhibition time constant	400 s
Cc1cc2c(c(=O)[nH]1)C(=O)O/C2=C\c1ccc(Br)cc1OC(C)C	PDE1C isoform PDE1C2	enzyme activity, inhibitor		with: 3H-cGMP substrate		ligand efficiency	0.34
N[C@@H](CCCCB(O)O)C(=O)O	Arginase (Schistosoma mansoni, UniProt Q6WVP6)	isothermal titration calorimetry		concentration not given		binding enthalpy	-11.4 ± 0.3 kcal/mol
NC(=O)NO	NADH dehydrogenase [ubiquinone] iron-sulfur protein 7, mitochondrial/NADH dehydrogenase [ubiquinone] iron-sulfur protein 2, mitochondrial/MT-ND1	complex I-dependent respiration, Seahorse XF96	HCT-116	10 µM, 24 h	baseline: control	oxygen consumption rate	84.7 ± 7.9%
O=S(=O)(O)C1CCNCC1	SLC6A6 (Homo sapiens, UniProt P31641, Y138A)	binding, microscale thermophoresis		61 nM, room temperature, with: 50 nM labelled protein	higher = more binding	normalised MST signal	-0.0308
Cn1ncc2c(NCCO)nc(Nc3ccc(F)c(F)c3)nc21	3-oxoacyl-[acyl-carrier-protein] reductase FabG (fabG, Pseudomonas aeruginosa, UniProt O54438)	enzyme activity, inhibitor, NADPH fluorescence		reverse reaction, with: 3-OH-decanoyl-NAC, NADP		Hill slope	1.7
NCc1ccc(C(F)(F)F)cc1	Maoa	kcat pH profile ES complex, substrate		pH 6.5-9.5		pKa	7.5 ± 0.1
NC(=O)NOCCCCCCCCCC[P+](c1ccccc1)(c1ccccc1)c1ccccc1.O=C([O-])C(F)(F)F	NADH dehydrogenase [ubiquinone] iron-sulfur protein 7, mitochondrial/NADH dehydrogenase [ubiquinone] iron-sulfur protein 2, mitochondrial/MT-ND1	complex I-dependent respiration, Seahorse XF96	HCT-116	15 µM, 24 h	baseline: control	oxygen consumption rate	21.1 ± 4.73%
N[C@@H](Cc1ccccc1)C(=O)O	ADRB1 (Homo sapiens, UniProt P08588)		HEK293 expressing β1AR	10 µM		cAMP level	23.7 pmol/mg protein and 16.8 pmol/mg protein and 20.6 pmol/mg protein and 21.1 pmol/mg protein and 18.3 pmol/mg protein and 18.5 pmol/mg protein
CC[C@@H](C)[C@@H](NC(=O)[C@@H](Cc1ccc(O)cc1)NC(=O)[C@H]1CCCN1C(=O)[C@@H](CCCNC(=N)N)NC(=O)[C@H](N)Cc1c[nH]cn1)C(=O)N[C@H](C)C(=O)N[C@H](Cc1c[nH]cn1)C(=O)N[C@H](CCCNC(=N)N)C(=O)N[C@@H](C(=O)N[C@H](Cc1ccc(O)cc1)C(=O)N[C@H](CO)C(=O)N[C@H](Cc1ccccc1)C(N)=O)C(C)C	Transferrin receptor protein 1 (Tfrc, Mus musculus, UniProt Q62351)	flow cytometry	MC-38	24 h, unit not given	baseline: 0 h	surface TFRC expression	1.01
Cc1cc(NC(=O)CNC2CCNCC2)n(C2CCS(=O)(=O)C2)n1 (stereo not shown)	Kir3.1/Kir3.2	thallium flux, activator	HEK293		baseline: standard compound	Emax	< 10%
C[C@@H](c1ccc(-n2cnc3c(N)ncnc32)cc1)N1CCc2nn(C)c(Cc3ccccc3)c2C1=O	MAP3K12 (Homo sapiens, UniProt Q12852)	KINOMEscan		0.1 µM	baseline: DMSO control	remaining binding	82%

Compound	target	test	test system	conditions	scale	quantity	value
Cc1ccc(S(=O)(=O)NCc2ccc(CNC(=O)c3cccnc3)cc2)cc1	CXCR4 (Homo sapiens, UniProt P61073)	binding, inhibitor, competitive binding	MDA-MB-231	with: biotinylated TN14003		EC	> 1000 nM
Oc1ccc(/C=C/c2cc(O)cc(O)c2)cc1	O-methyltransferase (Sorghum bicolor, UniProt A0A1B6PFV1)	ITC two-site model		exothermic site, with: sinefungin		ΔG	-10.4 kcal/mol
Nc1nc(Nc2ccc(S(N)(=O)=O)cc2)nn1C(=S)Nc1c(F)cccc1F	TRPM8	antagonist	HEK293	5 µM	baseline: control	remaining activity	92 ± 12.9%
O=c1nc(SCc2cc(F)cc(C(F)(F)F)c2)nc(SCc2csc3ccc(Cl)cc23)[nH]1	TOP2A	DNA cleavage		7.8 µM, replicate 2		linear DNA	0%
Nc1ncnc2c1ncn2[C@@H]1O[C@H](COP(=O)(O)OP(=O)(O)O)[C@@H](O)[C@H]1O	GUK1	ITC		molar ratio 1.11		ΔH	-1.2 kcal/mol
CCCCCCCCNc1cc(=O)n(C)c(=O)n1C	FFAR4	antagonist, β-arrestin recruitment	CHO cells	10 µM		inhibition	30 ± 3%
C#CCN(CCCN1CCN(c2ccc(F)cc2)CC1)Cc1ccc(C(=O)c2ccc([N+](=O)[O-])cc2)cc1	TMEM97	radioligand binding	RT-4 cell membranes		baseline: sigma1 Ki over sigma2 Ki	Ki ratio	4.18
Cc1ccc(Oc2ccc(NC(=O)CNc3ccccc3N3CCCC3=O)cc2)cc1	GAP50	binding, surface plasmon resonance		1:1 binding model		koff	0.321 s⁻¹
Nc1nc2c(ncn2[C@@H]2O[C@H](COP(=O)(O)O)[C@@H](O)[C@H]2O)c(=O)[nH]1	GUK1	substrate, NADH-coupled		NaCl 50 mM, with: ATP 2.5 mM		Km	49.5 µM
Cc1cc(C)cc(COc2ccc3c(C)c(CCC(=O)O)c(=O)oc3c2C)c1	GAP50	binding, surface plasmon resonance		1:1 binding model		kon	35800 M⁻¹ s⁻¹
CCCCCCCCNc1[nH]c(=O)[nH]c(=O)c1Br	FFAR4	agonist, β-arrestin recruitment	CHO cells	10 µM	baseline: 30 µM TUG-891	agonist effect	0 ± 1%
NC(=O)NOCCCCCCCCCCCCCCCCCCCC[P+](c1ccccc1)(c1ccccc1)c1ccccc1.O=C([O-])C(F)(F)F	NADH dehydrogenase [ubiquinone] iron-sulfur protein 7, mitochondrial/NADH dehydrogenase [ubiquinone] iron-sulfur protein 2, mitochondrial/MT-ND1	complex I-dependent respiration, Seahorse XF96	HCT-116	0.2 µM, 24 h	baseline: control	oxygen consumption rate	88.7 ± 7.81%
O=c1nc(SCc2cc(F)cc(C(F)(F)F)c2)nc(SCc2ccc3nc(OCCN4CCOCC4)ccc3c2)[nH]1	TOP2A	DNA cleavage		15.6 µM, replicate 1		linear DNA	0%
O=C(COc1ccc(Cl)cc1Cl)NCc1cccs1	Kir3.1/Kir3.2	activator, thallium flux	HEK293	concentration not given		activity	inactive
O=C(ON1C(=O)CCC1=O)c1cc(C(F)(F)F)cc(C(F)(F)F)c1	CD209 antigen (CD209, Homo sapiens, UniProt Q9NNX6)	binding, grating-coupled interferometry	mannose-PEG3 chip	2 h, no Tris		Hill slope	3.1
CCCCCCCCNc1c[nH]c(=O)[nH]c1=O	FFAR4	antagonist, β-arrestin recruitment	CHO cells	10 µM		inhibition	38 ± 4%
COc1cccc2c(Nc3ccc4[nH]c(C(=O)N/N=C/c5ccc(SC)cc5)cc4c3)cc(C)nc12	Nuclear receptor subfamily 4 group A member 2, LBD (Homo sapiens, UniProt P43354)	reporter gene, Gal4 hybrid reporter		3 µM	baseline: vehicle	activation	0.59 fold
CCCCCCCCNc1[nH]c(=O)[nH]c(=O)c1N=O	FFAR4	antagonist, β-arrestin recruitment	CHO cells	10 µM		inhibition	26 ± 4%
Cc1cc2c(c(=O)[nH]1)C(=O)O/C2=C\c1ccccc1OCC1CC1	PDE1C isoform PDE1C2	enzyme activity, inhibitor		with: 3H-cGMP substrate		binding free energy	-9.16 kcal/mol
COc1ccccc1-c1n[nH]c2nc(N[C@H]3CC[C@H](NS(=O)(=O)CCCOCCOCCNC(=O)OC(C)(C)C)CC3)ncc12	cyclin 9 (Leishmania donovani, UniProt A0A2D1QVA3)	resin binding, SILAC competition pull-down, measured: CYC9	Leishmania donovani extract	10 µM	baseline: heavy over light	log2 fold change	3.75
CSCCCNc1cc(=O)[nH]c(=O)[nH]1	FFAR4	antagonist, β-arrestin recruitment	CHO cells	10 µM, with: 4 µM TUG-891		inhibition	25 ± 10%
COc1ccc(CN)cc1	Maoa	substrate		pH 7.5, 25 °C, α,α-protio substrate		kcat	0.153 s⁻¹
O=c1[nH]c(NCCCc2ccccc2)c(Br)c(=O)[nH]1	FFAR4	antagonist, β-arrestin recruitment	CHO cells	10 µM, with: 4 µM TUG-891		inhibition	14 ± 1%
O=c1[nH][nH]c2nnc(-c3c(-c4ccccc4)nn4ccccc34)cc12	TRPM8	antagonist	HEK293	5 µM	baseline: control	remaining activity	97.3 ± 10.1%
C=CC(=O)N1CCC(COCC(=O)N2CCN(c3nc(-c4cnc(N)nc4C(F)F)nc(N4CCOC[C@@H]4C)n3)CC2)CC1	PLK3 (Homo sapiens, UniProt Q9H4B4)	KINOMEscan		1 µM		remaining binding	100%
CCCCCCCNc1cc(=O)[nH]c(=O)[nH]1	FFAR4	agonist, β-arrestin recruitment	CHO cells	10 µM		activation	0%
